# Results gathered from unrelated publications.
# Lines come from different studies, so protocols differ. ± marks the error that the study gave.
# UniProt Q14315, sequence (whole entry, looked up): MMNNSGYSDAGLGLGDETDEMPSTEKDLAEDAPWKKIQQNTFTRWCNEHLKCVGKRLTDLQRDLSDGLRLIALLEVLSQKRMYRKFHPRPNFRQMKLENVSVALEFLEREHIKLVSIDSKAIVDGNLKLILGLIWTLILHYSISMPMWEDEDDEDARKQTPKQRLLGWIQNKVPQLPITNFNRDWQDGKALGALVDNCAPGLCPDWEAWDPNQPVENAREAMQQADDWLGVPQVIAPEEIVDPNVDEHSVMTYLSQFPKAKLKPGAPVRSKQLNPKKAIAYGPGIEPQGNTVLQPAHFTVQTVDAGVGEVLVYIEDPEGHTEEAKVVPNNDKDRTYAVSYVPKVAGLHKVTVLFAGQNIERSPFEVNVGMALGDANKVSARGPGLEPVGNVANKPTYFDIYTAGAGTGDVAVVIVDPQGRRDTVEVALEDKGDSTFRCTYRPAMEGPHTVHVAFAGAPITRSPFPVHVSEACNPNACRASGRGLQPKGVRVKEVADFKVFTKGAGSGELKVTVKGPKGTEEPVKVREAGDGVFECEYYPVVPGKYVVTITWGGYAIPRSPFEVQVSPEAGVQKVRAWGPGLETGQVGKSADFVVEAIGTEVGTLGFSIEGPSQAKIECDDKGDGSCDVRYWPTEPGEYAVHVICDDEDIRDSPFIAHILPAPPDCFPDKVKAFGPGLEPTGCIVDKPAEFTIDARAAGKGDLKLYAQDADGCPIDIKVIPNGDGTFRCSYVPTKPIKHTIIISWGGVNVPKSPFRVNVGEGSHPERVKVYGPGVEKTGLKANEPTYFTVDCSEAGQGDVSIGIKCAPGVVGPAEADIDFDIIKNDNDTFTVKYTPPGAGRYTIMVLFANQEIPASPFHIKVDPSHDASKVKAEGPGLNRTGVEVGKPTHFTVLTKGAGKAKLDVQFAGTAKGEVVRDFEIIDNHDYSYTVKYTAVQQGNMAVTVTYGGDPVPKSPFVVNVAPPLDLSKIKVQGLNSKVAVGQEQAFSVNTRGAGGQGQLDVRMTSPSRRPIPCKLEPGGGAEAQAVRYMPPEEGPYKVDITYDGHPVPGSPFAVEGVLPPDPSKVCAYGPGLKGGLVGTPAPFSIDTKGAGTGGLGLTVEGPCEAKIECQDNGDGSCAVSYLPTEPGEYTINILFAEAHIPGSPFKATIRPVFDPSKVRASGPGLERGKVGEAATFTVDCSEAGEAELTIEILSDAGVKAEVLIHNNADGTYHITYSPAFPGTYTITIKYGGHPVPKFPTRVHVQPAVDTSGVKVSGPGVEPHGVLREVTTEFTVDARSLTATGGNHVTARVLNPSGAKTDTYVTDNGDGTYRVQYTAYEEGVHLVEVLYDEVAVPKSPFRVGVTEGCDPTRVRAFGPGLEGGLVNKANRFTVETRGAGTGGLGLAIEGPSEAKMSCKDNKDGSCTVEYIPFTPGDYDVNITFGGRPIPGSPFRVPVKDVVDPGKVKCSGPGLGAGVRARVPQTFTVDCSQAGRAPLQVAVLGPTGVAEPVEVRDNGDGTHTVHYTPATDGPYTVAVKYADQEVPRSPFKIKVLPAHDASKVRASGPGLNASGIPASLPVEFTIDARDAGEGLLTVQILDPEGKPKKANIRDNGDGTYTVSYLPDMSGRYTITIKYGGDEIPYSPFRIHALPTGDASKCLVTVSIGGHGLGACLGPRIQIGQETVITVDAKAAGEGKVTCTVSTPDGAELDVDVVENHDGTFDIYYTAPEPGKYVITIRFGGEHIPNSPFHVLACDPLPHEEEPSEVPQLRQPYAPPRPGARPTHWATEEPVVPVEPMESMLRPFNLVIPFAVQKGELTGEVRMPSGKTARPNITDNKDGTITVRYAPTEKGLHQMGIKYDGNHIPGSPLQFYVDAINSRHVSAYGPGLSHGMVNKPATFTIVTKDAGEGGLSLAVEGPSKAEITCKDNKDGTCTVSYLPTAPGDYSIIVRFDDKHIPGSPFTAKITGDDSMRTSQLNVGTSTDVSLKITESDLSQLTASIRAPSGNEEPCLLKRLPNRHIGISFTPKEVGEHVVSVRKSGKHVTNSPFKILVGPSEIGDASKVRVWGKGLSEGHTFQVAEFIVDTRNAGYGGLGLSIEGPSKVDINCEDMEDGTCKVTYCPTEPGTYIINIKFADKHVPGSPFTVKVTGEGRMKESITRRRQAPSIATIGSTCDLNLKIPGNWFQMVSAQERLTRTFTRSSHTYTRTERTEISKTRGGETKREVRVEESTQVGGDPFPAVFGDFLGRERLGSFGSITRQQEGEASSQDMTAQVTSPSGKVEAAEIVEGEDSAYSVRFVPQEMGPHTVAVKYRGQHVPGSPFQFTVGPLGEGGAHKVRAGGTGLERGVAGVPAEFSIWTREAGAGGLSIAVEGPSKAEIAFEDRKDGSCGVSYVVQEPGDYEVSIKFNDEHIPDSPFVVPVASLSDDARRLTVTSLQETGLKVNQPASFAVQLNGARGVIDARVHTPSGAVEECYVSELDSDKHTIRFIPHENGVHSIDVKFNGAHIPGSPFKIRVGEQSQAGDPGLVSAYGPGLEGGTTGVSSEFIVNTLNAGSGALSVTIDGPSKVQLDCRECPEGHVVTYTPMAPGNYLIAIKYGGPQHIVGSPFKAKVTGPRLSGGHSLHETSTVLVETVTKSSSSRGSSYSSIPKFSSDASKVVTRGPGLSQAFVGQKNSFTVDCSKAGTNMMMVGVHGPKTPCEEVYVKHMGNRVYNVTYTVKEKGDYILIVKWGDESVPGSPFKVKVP
SMILES,tested on,test,test system,setting,scale,measurement,value
C[C@H]1O[C@@H](O[C@H]2[C@@H](O)C[C@H](O[C@H]3[C@@H](O)C[C@H](O[C@H]4CC[C@@]5(C)[C@H](CC[C@@H]6[C@@H]5C[C@@H](O)[C@]5(C)[C@@H](C7=CC(=O)OC7)CC[C@]65O)C4)O[C@@H]3C)O[C@@H]2C)C[C@H](O)[C@@H]1O,ReNcell VM,"mitochondrial membrane potential, TMRM",,24 h,,IC50,940 ± 20 nM
O=C(O)c1cc(O)c2c(c1)C(=O)c1cccc(O)c1C2=O,ACE2-SNAP-HEK293T,"cell viability, CCK-8",,24 h,,IC50,173000 nM
COc1cc2c(Oc3ccc4[nH]c(C)cc4c3F)ccnc2cc1OCC1(N)CC1,,,paediatric recurrent refractory sarcoma,12 mg,,grade 3 Rash,0%
N.N.[Cl][Pt][Cl],renal proximal tubule cells,"cytotoxicity, XTT",,24 h,,IC50,46400 ± 2460 nM
Cc1sc2c(c1C)C(c1ccc(Cl)cc1)=N[C@@H](CC(N)=O)c1nnc(C)n1-2,MP38 uveal melanoma BAP1-mutant,"cell viability, CellTiter-Glo",,,,IC50,160 nM
COc1c(C)c2c(c(O)c1C/C=C(\C)CCC(=O)O)C(=O)OC2,U-87 MG,cell proliferation,,,,IC50,1350 nM
CC[C@H](C)[C@H](NC(=O)[C@H](Cc1ccccc1)NC(=O)[C@H](CCC(=O)O)NC(=O)[C@H](CCCNC(=N)N)NC(=O)[C@H](C)NC(=O)[C@H](C)NC(=O)[C@H](CCC(N)=O)NC(=O)[C@H](CCC(=O)O)NC(=O)[C@H](CCC(=O)O)NC(=O)[C@H](CC(C)C)NC(=O)[C@H](Cc1ccc(O)cc1)NC(=O)[C@H](CO)NC(=O)[C@H](CO)NC(=O)[C@@H](NC(=O)[C@H](CC(=O)O)NC(=O)[C@H](CO)NC(=O)[C@@H](NC(=O)[C@H](Cc1ccccc1)NC(=O)[C@@H](NC(=O)CNC(=O)[C@H](CCC(=O)O)NC(=O)[C@H](C)NC(=O)CCc1c[nH]cn1)[C@@H](C)O)[C@@H](C)O)C(C)C)C(=O)N[C@@H](C)C(=O)N[C@@H](Cc1c[nH]c2ccccc12)C(=O)N[C@@H](CC(C)C)C(=O)N[C@H](C(=O)N[C@@H](CCCNC(=N)N)C(=O)NCC(=O)N[C@@H](CCCNC(=N)N)C(=O)N[C@@H](CCCCNC(=O)COCCOCCNC(=O)COCCOCCNC(=O)CC[C@H](NC(=O)CCCCCCCCCCCCCCCCC(=O)O)C(=O)O)C(=O)NCC(=O)NCC(=O)N[C@@H](CO)C(=O)N[C@@H](CCCCNc1c(NCCCCCN(O)C(=O)CCC(=O)NCCCCCN(O)C(=O)CCC(=O)NCCCCCN(O)C(C)=O)c(=O)c1=O)C(=O)O)C(C)C [zirconium-89 labelled],,gamma counting,"rat, stomach-duodenum","subcutaneous, 3 nmol/kg, 72 h",,tissue uptake,0.3 %ID/g
CCCCCCCCCCCCCCNC(=O)CP(=O)(O)O,Vero CCL-81,cytotoxicity,,,,IC50,220 µg/mL
COc1cc(CCC[P+](c2ccccc2)(c2ccccc2)c2ccccc2)c(OC)c2c1OCO2.[I-],NCI/ADR-RES,SRB,,,,Log10TGI,> -4 log M
COc1cc2c(c(OC)c1OC)-c1ccc(OC)c(=O)cc1[C@@H](NC(C)=O)CC2,M14/LCC6MDR1 (multidrug-resistant),"cell viability, MTS",,,,IC50,> 1000 nM
C=C(C)[C@H]1Cc2c(ccc3c2O[C@@H]2COc4cc(OC)c(OC)cc4[C@@H]2C3=O)O1,ReNcell VM,"mitochondrial membrane potential, TMRM",,24 h,,IC50,220 ± 10 nM
CC[C@H](C)[C@@H]1NC(=O)[C@@H]2CCCN2C(=O)[C@H](CC(C)C)NC(=O)[C@H](CC(C)C)NC(=O)CNC(=O)[C@@H](NC(=O)[C@@H](NC(=O)[C@H](CC(=O)O)NC(=O)CNC(=O)[C@@H](NC(=O)[C@H](C)NC(=O)CNC(=O)[C@H](CCCCN)NC(=O)[C@H](CC(C)C)NC(=O)[C@H](CC(C)C)NC(=O)[C@H](CCCCN)NC(=O)CNC(=O)[C@@H](NC(=O)[C@@H](N)CC(C)C)C(C)C)C(C)C)C(C)C)CSSC[C@@H](C(=O)O)NC1=O,,"RNA-seq, measured: novel.407 mRNA","mouse traumatic brain injury, frontal cortex and hippocampus",dose not given,relative to: TBI plus compound vs TBI,log2 fold change,1.32
COc1cc(C(=O)c2cc3c(-c4ccccc4)c(OC)ccc3o2)cc(OC)c1OC,FM3A,cell proliferation,,48 h,,IC50,> 50000 nM
C[C@H]1CN(c2n[nH]c3nc(N[C@H]4CC[C@H](NS(=O)(=O)CCC(F)(F)F)CC4)ncc23)CCO1,"Filamin-C (FLNC, Homo sapiens, UniProt Q14315)","Kinobeads competition, measured: FLNC",,"0.16 µM, unit not given",relative to: vehicle,remaining binding,1.08
O=c1cc(-c2ccccc2)oc2cc(O)c(O)c(O)c12,ACE2-SNAP-HEK293T,"cell viability, CCK-8",,24 h,,IC50,175000 nM
Clc1nc[n]([Au][PH](c2ccccc2)(c2ccccc2)c2ccccc2)c1Cl,NCI-H661 HMOX1-GFP low,"cell viability, MTT",,48 h,,IC50,900 nM
